Published values pooled from the literature.
Parts stem from different laboratories: compare values within a part only.

Block 1
Target: Replicase polyprotein 1ab, main protease (rep, Severe acute respiratory syndrome coronavirus 2, UniProt P0DTD1)
Read-out: enzyme activity
Action: inhibitor
Concentration: 20 µM
Setting: hit confirmation, with DTT
Structure (SMILES)	inhibition [%]
CC(C)N(CCC(=O)c1ccc2ccccc2c1)Cc1ccccc1	6
NC[C@H](O)c1ccc(O)c(O)c1	13.1
COCCCOc1ccnc(C[S+]([O-])c2nc3ccccc3[nH]2)c1C (centres unmarked)	-10.5

Block 2
Target: PABPC1L2, full length, GST fusion (mouse, UniProt A0ABA7IW68)
Technique: RNAcompete
Molecule type: RNA
Sample: in vitro
Concentration: 20 nM
Setting: 7-mer, probes averaged, single round
Baseline: mean of 7-mers
Reading: higher = stronger binding
Target sequence (chain): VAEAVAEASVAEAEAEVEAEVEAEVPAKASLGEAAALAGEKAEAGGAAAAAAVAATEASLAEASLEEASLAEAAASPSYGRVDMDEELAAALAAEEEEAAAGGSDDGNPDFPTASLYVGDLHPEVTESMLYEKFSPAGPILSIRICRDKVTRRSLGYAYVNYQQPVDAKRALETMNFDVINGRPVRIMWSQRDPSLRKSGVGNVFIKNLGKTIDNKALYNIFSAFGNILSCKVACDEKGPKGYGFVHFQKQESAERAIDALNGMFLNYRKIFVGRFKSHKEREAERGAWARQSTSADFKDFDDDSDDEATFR
Oligonucleotide	7-mer Z-score
ACGAUCC	-0.211
CACCACU	-0.146
UUAACCA	-0.112
ACAAGGG	0.588
GUCUCAC	-0.222
UGUGCGU	-0.242
AUCAGUG	-0.0754
GGUUGCC	-0.191

Block 3
Target: Ras GTPase-activating protein-binding protein 1, full length (G3BP1, Homo sapiens, UniProt Q13283)
UniProt Q13283, sequence (whole entry, looked up): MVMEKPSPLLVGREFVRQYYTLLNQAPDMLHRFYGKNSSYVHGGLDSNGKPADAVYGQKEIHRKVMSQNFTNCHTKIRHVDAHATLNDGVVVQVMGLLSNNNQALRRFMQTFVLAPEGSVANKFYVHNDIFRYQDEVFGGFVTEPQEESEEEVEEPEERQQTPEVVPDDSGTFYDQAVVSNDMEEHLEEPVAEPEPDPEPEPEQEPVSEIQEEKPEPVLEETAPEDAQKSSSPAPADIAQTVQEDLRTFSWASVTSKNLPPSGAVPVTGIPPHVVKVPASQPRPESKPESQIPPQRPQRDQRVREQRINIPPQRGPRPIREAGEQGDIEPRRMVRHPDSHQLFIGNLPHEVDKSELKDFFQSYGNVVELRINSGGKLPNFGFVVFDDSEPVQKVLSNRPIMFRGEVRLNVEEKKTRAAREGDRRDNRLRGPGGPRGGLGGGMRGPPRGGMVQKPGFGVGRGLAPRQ
Technique: RNA Bind-n-Seq
Molecule type: RNA
Sample: in vitro
Concentration: 200 nM
Setting: whole 134-nt RNA, ends assumed
Added: 150 mM LiCl
Baseline: input library
Reading: higher = stronger binding
Library: 7-deaza-guanosine replaces G
Shared flanks, not repeated: GGGAGUUCUACAGUCCGACGAUC … UGGAAUUCUCGGGUGUCAAGG
Oligonucleotide	log2 enrichment
GUCCUGUGCUACACAUCGUAUGUACCGAAUCAAACCCAAAUUUUUUUAAACCCCCAAAAAAGUAUUAUGUUACGCCGUUCGGAUCUGCAC	1.37
UCCUGUGCUACACAUCGUAUGUACCGAAUCGGCCCCCCGGCCCCCCGGGCCCCCCGGGGAAAGUAUUAUGUUACGCCGUUCGGAUCUGCA	-0.125
GUCCUGUGCUACACAUCGUAUGUACCGAAUCGGGGAAAGGGGAAAAAAAGGGGUGGGGAAAGUAUUAUGUUACGCCGUUCGGAUCUGCAC	-0.57
ACCAUGCAGGUGGGCAUCUUUGGGAAGUGGGGCAAGGGGGGGAUAGGGAGGGGGCUAACACUUUGGGAACAGGUGGUCCCAGGUCGUUUC	0.369
CACAGACAACACGCACCCACACAGACACAGAGGGAAGGGGUUGGGAUGGGGACAGGGUGCACAGCAGGGCGGGAAAGGACCCCAGCCCCU	1.18
UGGGAGGUGGAUUUUGUUUAUUUUUUUAGCUCAUUUCCAGGGGUGGGAAUUUUUUUUUAAUAUGUGUCAUGAAUAAAGUUGUUUUUGUAA	-0.00587
AGUCCUGUGCUACACAUCGUAUGUACCGAAUCGGGGAAAAGGGGAAAAGGAAAAGGGAAAGUAUUAUGUUACGCCGUUCGGAUCUGCACU	-0.558
UCAAGUCCUGUGCUACACAUCGUAUGUACCGAAUCGGUUUGGUUUGGUUUGGGGAAAGUAUUAUGUUACGCCGUUCGGAUCUGCACUUCC	-0.245

Block 4
Cell line: HEK-293T/ACE2
Concentration: concentration not given
Time: 16 (unit not given)
Baseline: vehicle
SMILES	viability
COC[C@@H](NC(C)=O)C(=O)NCc1ccccc1	105%
CCC(=O)O[C@]1(C(=O)CCl)[C@@H](C)C[C@H]2[C@@H]3CCC4=CC(=O)C=C[C@]4(C)[C@@]3(F)[C@@H](O)C[C@@]21C	105%
N[C@@H](CC(=O)N1CCn2c(nnc2C(F)(F)F)C1)Cc1cc(F)c(F)cc1F	95%

Block 5
Target: Replicase polyprotein 1ab, nsp13 helicase (rep, Severe acute respiratory syndrome coronavirus 2, UniProt P0DTD1)
Action: inhibitor
Concentration: 20 µM
SMILES	inhibition [%]
O=C(O)C1=CO[C@@H](O[C@@H]2O[C@H](CO)[C@@H](O)[C@H](O)[C@H]2O)[C@@H]2C(CO)=CC[C@H]12	-2.89
C[C@@H]1COC(Nc2ccc3ncnc(Nc4ccc(OCc5nccs5)c(Cl)c4)c3c2)=N1	6.68
CN(C)Cc1cccc(N=C(c2ccccc2)c2c(O)[nH]c3cc(C(=O)N(C)C)ccc23)c1	3.17
CC(C)OC(=O)[C@H](C)N[P@@](=O)(OC[C@H]1O[C@@H](n2ccc(=O)[nH]c2=O)[C@](C)(F)[C@@H]1O)Oc1ccccc1	5.99
COc1ccc(S(=O)(=O)N2CCC[C@H]2C(=O)Nc2cc(C)cc(C)c2)cc1	0.94
O=C(CCBr)N1CCN(C(=O)CCBr)CC1	-2.09
COc1cc2c(cc1OC)[C@H]1CC(=O)[C@H](CC(C)C)CN1CC2	-4.06
c1ccc2c(CC3=NCCN3)cccc2c1	2.27
CNC(=O)[C@H]1O[C@@H](n2cnc3c(NCc4cccc(I)c4)ncnc32)[C@H](O)[C@@H]1O	0.88
CC1(CN)Cc2ccccc2C1	-2.57
NNC(=O)CN1C(=O)CN=C(c2ccccc2)c2cc(Br)ccc21	9.92
CC(=O)CCCCn1c(=O)c2c(ncn2C)n(C)c1=O	3.67
Cc1ccc(/C=C2/C(=O)[C@]3(C)CC[C@H]2C3(C)C)cc1	5.66
N=C1NC(=O)N2CC12 (centres unmarked)	4.69
Clc1ccc2c(NCCNc3ccnc4cc(Cl)ccc34)ccnc2c1	4.17
C=CCNc1ncnc2ccc(Br)cc12	-2.34
C=CC(=O)Nc1cc2c(Nc3ccc(F)c(Cl)c3)ncnc2cc1C#CC(C)(C)N1CCN(C)CC1	5.1
COc1cc(C(=O)O)ccc1NC(=O)[C@@H]1N[C@@H](CC(C)(C)C)[C@](C#N)(c2ccc(Cl)cc2F)[C@H]1c1cccc(Cl)c1F	0.07
CN(C)CCC=C1c2ccccc2CCc2ccccc21	-4.18

A few entries again (block 4):
SMILES	viability
COC[C@@H](NC(C)=O)C(=O)NCc1ccccc1	105%
CCC(=O)O[C@]1(C(=O)CCl)[C@@H](C)C[C@H]2[C@@H]3CCC4=CC(=O)C=C[C@]4(C)[C@@]3(F)[C@@H](O)C[C@@]21C	105%
N[C@@H](CC(=O)N1CCn2c(nnc2C(F)(F)F)C1)Cc1cc(F)c(F)cc1F	95%
